# Assay results pooled from the literature.
# Compare with care: the assays were run in different laboratories.
# Target: Transient receptor potential cation channel subfamily M member 6 (TRPM6, Homo sapiens, UniProt Q9BX84)
SMILES,read-out,technique,concentration,relative to,remaining binding
C=CC(=O)N1CCCC(n2c(=O)c3ncccc3n(Cc3ccc(Oc4ccccc4)cc3)c2=O)C1 (stereo not shown),cell-free assay,competition with immobilised ligand,1 µM,,85%
CCN1CCN(Cc2ccc(NC(=O)c3ccc(C)c(NC(=O)c4cncc(-c5cnn(C)c5)c4)c3)cc2C(F)(F)F)CC1,binding,competition with immobilised ligand,1 µM,,100%
C=CC(=O)N1CCc2ccc(-n3c(=O)ccc4cnc5ccc(-c6cnn(C)c6)cc5c43)cc21,,KINOMEscan,1 µM,DMSO control,87%
CCN1CCN(Cc2ccc(C(=O)Nc3ccc(C)c(NCc4cnc5[nH]ccc5c4OC)c3)cc2C(F)(F)F)CC1,binding,competition with immobilised ligand,1 µM,,16%
COc1cc(Nc2nccc(-c3cnn4nc(OC)ccc34)n2)cc(C(F)(F)F)c1,binding,competition with immobilised ligand,1 µM,,100%
COc1c(Cl)cccc1Nc1c(-c2ccncc2C#C[C@@]2(C)CCCN2C(=O)/C=C/CN(C)C)[nH]c2c1C(=O)NCC2,cell-free assay,competition with immobilised ligand,3 µM,,92%
Nc1ncc2c(n1)-c1c([nH]c3ccc(C4=CCOCC4)cc13)CCC2,binding,competition with immobilised ligand,1 µM,,100%
Cc1ccc(-c2c(/C=C(\C#N)C(=O)NC(C)C)n(CCCO)c3ncnc(N)c23)cc1,cell-free assay,competition with immobilised ligand,1 µM,,78%
CC(C)=CC1OC(C)(C)C2C=C3C(=O)C(Cl)=CC(O)C3C3C(O)C4OC4C(=O)C132 (stereo not shown),cell-free assay,competition with immobilised ligand,10 µM,,81%
CNC1C[S+]2CC[S+]3CC[S+](C1)[Ru-4]321([N]=C=S)[n]2c3ccc(OC)cc3c3c4c(c5cc(F)c[n+]1c5c32)C(=O)NC4=O (stereo not shown),,KinomeScan,0.1 µM,untreated,100%
CNC(=O)C1CCN(c2cc(C)c(F)cc2NC(=O)c2ccc(-c3cc(O)ccc3C)c(C)c2)CC1,binding,competition with immobilised ligand,1 µM,,91%
COc1cc(Nc2nc(C)cc(-c3cnn4nc(OC)ccc34)n2)cc(C(F)(F)F)c1,binding,competition with immobilised ligand,1 µM,,96%
Cc1cnc2nc1Nc1cccc(c1)COC/C=C/COCc1cc(ccc1OCCN1CCOCC1)N2,binding,competition with immobilised ligand,0.1 µM,,76%

# A few entries again:
SMILES,read-out,technique,concentration,relative to,remaining binding
CCN1CCN(Cc2ccc(C(=O)Nc3ccc(C)c(NCc4cnc5[nH]ccc5c4OC)c3)cc2C(F)(F)F)CC1,binding,competition with immobilised ligand,1 µM,,16%
